Results pooled from the literature.
Protocols differ between the studies behind these lines. ± marks the error that the study gave. Converted amounts (≈) assume the structure as drawn.

O=[N+]([O-])c1ccc(-n2nc(-c3ccccc3)cc2-c2ccc(F)cc2)c([N+](=O)[O-])c1 — NS1 protein reduction (Japanese encephalitis virus; western blot; Neuro2a; 15 µM, 72 h, co-treatment): ~60%
O=[N+]([O-])c1ccc(C2=[N+]([O-])c3ccccc3N3CCCN=C23)cc1 — MIC90 (Clostridium perfringens): 2 µg/mL (≈ 6.2 µM)
Oc1c(Br)ccc2cccnc12 — MIC (Shigella dysenteriae; microbial growth, agar dilution): 35.7 µM
CC(C)CC(C(=O)N1CC2(CC1C#N)C(=O)Nc1ccccc12)N(C)C(=O)c1cc2c(F)cc(F)c(F)c2[nH]1 (stereo not drawn) — inhibition (SARS-CoV-2; viral replication, infectious virus; Vero E6; 1.111 µM): 99.6%
CO/C1=C\C(C)=C\[C@@H](C)[C@@H](O)[C@@H](C)C/C(C)=C/C=C/[C@H](OC)[C@@H]([C@@H](C)[C@@H](O)[C@H](C)C(=O)/C=C/[C@H](C)[C@H](O)C(C)C)OC1=O — EC50 (SARS-CoV-2 Omicron BA.5; viral replication, dsRNA staining; Calu-3): 38.6 nM
N#Cc1ncn(COCCOCc2ccccc2)c1C#N — IC50 (Zaire ebolavirus; viral replication, inhibitor; Vero; 72 h): 13 µg/mL
Cc1oc2nc1C(=O)N[C@](C)(C(=O)O)c1nc(c(C)o1)C(=O)N[C@](C)(C(=O)O)c1nc(c(C)o1)C(=O)N[C@]2(C)C(=O)O — inhibition (SARS-CoV-2; virucidal activity; Vero E6, NRC-03-nhCoV; 20 µM): 60%
N#Cc1ncn(COCCBr)c1C#N — IC50 (Zaire ebolavirus; viral replication, inhibitor; Vero; 72 h): 43 µg/mL
Cc1ccc(N2CC3CC(C2)N3)cc1C(=O)NC1(c2ccc3c4c(cccc24)C(=O)N3C)CC1 — inhibition (SARS-CoV-2; viral replication; Vero C1008, XBB.1; 0.1543 µM): 95%
CCOP(=O)(COCCn1cnc(C#N)c1C#N)OCC — IC90 (Mammarenavirus lassaense; viral replication; Vero; 48 h): 43 µg/mL (≈ 138 µM)
O=C(NNC(=S)Nc1ccc(C(F)(F)F)cc1)c1ccccn1 — upE transcript level (MERS-CoV; viral replication, item: upE gene; concentration not given): decreased
COC(=O)CC1C2CCCN3CCCC(CN1Cc1ccc(Cl)cc1)C23.Cl.Cl (stereo not drawn) — selectivity index (Ebola virus; EBOV GP pseudotyped HIV; baseline: CC50 over IC50): > 7.12
COc1cc(Cc2cnc(N)nc2N)cc(OC)c1OC.O=c1[nH]cc(F)c(=O)[nH]1 — MIC (Shigella dysenteriae; broth microdilution; 24 h): 8 µg/mL
CN[C@@H]1[C@H](O)[C@H](NC)[C@H]2O[C@]3(O)[C@H](O[C@@H]2[C@H]1O)O[C@H](C)C[C@]3(O)CNCc1ccc(OC(F)(F)F)cc1 — inhibition zone diameter (Legionella pneumophila; ATCC 33153; 40 µg per disc, 48 h): 8 mm
[O-][N+]1=C(c2ccc(Cl)cc2)C2=NCCCN2c2ccccc21 — MIC50 (Clostridium perfringens; microbial growth): 32 µg/mL (≈ 103 µM)
N#Cc1ncn(COCCO)c1C#N — IC90 (Mammarenavirus lassaense; viral replication; Vero; 48 h): > 50 µg/mL
CN1CCN(C(=O)N[C@@H](Cc2ccccc2)C(=O)N[C@H](/C=C/S(=O)(=O)c2ccccc2)CCc2ccccc2)CC1 — IC50 (Severe acute respiratory syndrome coronavirus; cytopathic effect, inhibitor; Vero 76): < 50 nM
O=S(=O)(O)c1c2ccccc2c(-c2c3nc(c(-c4c5ccccc5c(S(=O)(=O)O)c5ccccc45)c4ccc([nH]4)c(-c4c5ccccc5c(S(=O)(=O)O)c5ccccc45)c4nc(c(-c5c6ccccc6c(S(=O)(=O)O)c6ccccc56)c5ccc2[nH]5)C=C4)C=C3)c2ccccc12 — inhibition (vaccinia virus; viral replication; WR; 50 µg/mL, 16 h): 67 ± 15%
CC[C@H](C)[C@H](NC(=O)[C@H](CCCCN)NC(=O)[C@H](CCCCN)NC(=O)[C@H](CC(C)C)NC(=O)[C@H](Cc1c[nH]c2ccccc12)NC(=O)CN)C(=O)NCC(=O)N[C@@H](CCCCN)C(=O)N[C@@H](CCCCN)C(=O)N[C@H](C(=O)N[C@@H](CCC(=O)O)C(=O)N[C@@H](CCCNC(=N)N)C(=O)N[C@H](C(=O)NCC(=O)N[C@@H](CCC(N)=O)C(=O)N[C@@H](Cc1c[nH]cn1)C(=O)N[C@H](C(=O)N[C@@H](CCCNC(=N)N)C(=O)N[C@@H](CC(=O)O)C(=O)N[C@@H](C)C(=O)N[C@H](C(=O)N[C@H](C(=O)N[C@@H](CCC(N)=O)C(=O)N[C@H](C(=O)N[C@H](C(=O)NCC(=O)N[C@H](C(=O)N[C@@H](C)C(=O)N[C@@H](CCC(N)=O)C(=O)N[C@@H](CCC(N)=O)C(=O)N[C@@H](C)C(=O)N[C@@H](C)C(=O)N[C@@H](CC(N)=O)C(=O)N[C@H](C(=O)N[C@@H](C)C(=O)N[C@@H](C)C(=O)N[C@H](C(=O)N[C@@H](CC(C)C)C(=O)N[C@@H](CCCCN)C(N)=O)[C@@H](C)O)C(C)C)C(C)C)[C@@H](C)CC)[C@@H](C)O)[C@@H](C)CC)[C@@H](C)O)[C@@H](C)O)C(C)C)[C@@H](C)CC — MIC (Proteus mirabilis; DSM 4479, CAMHB): > 1020 µg/mL
O=C(C=Cc1ccc(O)c(O)c1)OC1CC(O)(C(=O)O)CC(OC(=O)C=Cc2ccc(O)c(O)c2)C1O (stereo not drawn) — inhibition (Severe acute respiratory syndrome coronavirus 2; cytopathic effect, inhibitor; Vero C1008; 6.25 µM): 0%
[O-][N+]1=C(Cc2ccccc2)C2=NCCCN2c2ccccc21 — MIC90 (Clostridium perfringens): > 32 µg/mL
NC(=O)c1nc(F)c[nH]c1=O — Emax (Lassa mammarenavirus; viral replication; Huh-7; concentration not given): 99 ± 0.2%
Cc1ccc(NS(=O)(=O)c2c(C(=O)N3CCCCCC3)c(C)n(C)c2C)c(Cl)c1 — relative infection (Monkeypox virus; Vero C1008, wild type; 10 µM, 72 h; baseline: untreated): 0%
COc1ccc(C2=[N+]([O-])c3ccccc3N3CC(C)(C)CN=C23)cc1 — MIC90 (Clostridium perfringens): 8 µg/mL (≈ 23.9 µM)

A few entries again:
COc1ccc(C2=[N+]([O-])c3ccccc3N3CC(C)(C)CN=C23)cc1 — MIC90 (Clostridium perfringens): 8 µg/mL (≈ 23.9 µM)
O=[N+]([O-])c1ccc(-n2nc(-c3ccccc3)cc2-c2ccc(F)cc2)c([N+](=O)[O-])c1 — NS1 protein reduction (Japanese encephalitis virus; western blot; Neuro2a; 15 µM, 72 h, co-treatment): ~60%
Cc1ccc(N2CC3CC(C2)N3)cc1C(=O)NC1(c2ccc3c4c(cccc24)C(=O)N3C)CC1 — inhibition (SARS-CoV-2; viral replication; Vero C1008, XBB.1; 0.1543 µM): 95%
